Assay results from different studies.
Lines come from different studies, so protocols differ. “And” joins repeats or separate records; there may be more than shown.

O=C(Nc1nnc2[nH]c(=S)[nH]c(-c3ccc(Cl)cc3)c1-2)c1ccccc1  cell growth (SK-MEL-28; SRB; 10 µM, NCI60 single-dose screen; relative to: untreated): 104%
Cn1cncc1C1=CN(c2ncnc3[nH]cnc23)CCS1  TGI (SK-MEL-28; melanoma cell line): 100 µM
COC(=O)/C=C/C(=O)N(O)CCCCNCc1ccc(COC(=O)Nc2cccc3ccccc23)cc1  viability (OCI-Ly1; 1 µM, 120 h): 145%
CCCN1CCN(c2ccc3[nH]c(-c4ccc5[nH]c(-c6cc(OC)c(OC)c(OC)c6)nc5c4)nc3c2)CC1  growth percent (SK-MEL-28; SRB; 10 µM, 48 h): 57.9%
[Cl-].[Cl-].[Ru+2].c1cnc2c(c1)ccc1cccnc12.c1cnc2c(c1)ccc1cccnc12.c1csc(-c2nc3c4cccnc4c4ncccc4c3[nH]2)c1  phototherapeutic index (SK-MEL-28; normoxia, together with: green light 523 nm, 100 J/cm2): 23
CCCC(CCC)C(=O)OCc1cn(-c2c3ccccc3nc3ccccc23)nn1  growth percentage (SK-MEL-28; NCI60 single-dose screen; 10 µM): 104%
Cc1n[nH]c2nc(-c3ccc(Cl)cc3)c3c(NC(=O)c4ccccc4)nnc-3n12  cell growth (SK-MEL-28; SRB; 10 µM, NCI60 single-dose screen; relative to: untreated): 111%
CN1CCN(c2ccc3[nH]c(-c4ccc5[nH]c(-c6ccc(C(F)(F)F)cc6)nc5c4)nc3c2)CC1  growth percent (SK-MEL-28; SRB; 10 µM, 48 h): 63.2%
O=c1ccn(Cc2cn(-c3cc4ccccc4oc3=O)nn2)c(=O)[nH]1  growth percentage (SK-MEL-28; NCI60 single-dose screen; 10 µM): 111%
O=C(Nc1nnc2n3c(nc(-c4ccc(Cl)cc4)c1-2)SCC3=O)c1ccccc1  cell growth (SK-MEL-28; SRB; 10 µM, NCI60 single-dose screen; relative to: untreated): 110%
[Cl-].[Cl-].[Ru+2].c1cnc2c(c1)ccc1cccnc12.c1cnc2c(c1)ccc1cccnc12.c1csc(-c2ccc(-c3ccc(-c4ccc(-c5nc6c7cccnc7c7ncccc7c6[nH]5)s4)s3)s2)c1  EC50 (SK-MEL-28; normoxia, together with: visible light 100 J/cm2): 0.74 nM
C#C[C@@]1(O)[C@@H](CO)O[C@@H](n2cc(F)c3c(N)ncnc32)[C@@H]1O  TGI (SK-MEL-28; SRB; NCI-60 screen): > 100 µM
O=C(Nc1nnc2n3c(Cc4ccccc4)n[nH]c3nc(-c3ccc(Cl)cc3)c1-2)c1ccccc1  cell growth (SK-MEL-28; SRB; 10 µM, NCI60 single-dose screen; relative to: untreated): 111%
CCn1cc(-c2cc(Cn3ccnc3)cc3c2CCN([C@H](c2cc(OC)ccn2)C2CC2)C3=O)c(C(F)(F)F)n1  EC50 (SK-MEL-28; cell growth, inhibitor; 120 h): 3040 nM
CCCCN1CCN(c2ccc3[nH]c(-c4ccc5[nH]c(-c6cc(OC)c(OC)c(OC)c6)nc5c4)nc3c2)CC1  growth percent (SK-MEL-28; SRB; 10 µM, 48 h): 66.3%
C#C[C@@]1(O)[C@@H](CO)O[C@@H](n2cc(I)c3c(N)ncnc32)[C@@H]1O  TGI (SK-MEL-28; SRB; NCI-60 screen): 9.27 µM and 14 µM
O=C(/C=C/C=C/C=C/C1CCCCC1)NC1=C[C@@](O)(/C=C/C=C/C=C/C(=O)NC2=C(O)CCC2=O)[C@@H]2O[C@@H]2C1=O  GI50 (SK-MEL-28; cell growth, CellTiter-Glo; 78 h): 20.7 µM
O=C(Nc1nnc2n3c(=S)[nH][nH]c3nc(-c3ccc(Cl)cc3)c1-2)c1ccccc1  cell growth (SK-MEL-28; SRB; 10 µM, NCI60 single-dose screen; relative to: untreated): 117%
O=C1NC(c2ccccc2)(c2ccccc2)C(=O)N1Cc1cn(-c2c3ccccc3nc3ccccc23)nn1  growth percentage (SK-MEL-28; NCI60 single-dose screen; 10 µM): 104%
C#C[C@@]1(O)[C@@H](CO)O[C@@H](n2cc(Cl)c3c(N)ncnc32)[C@@H]1O  TGI (SK-MEL-28; SRB; NCI-60 screen): 57.1 µM and 89.4 µM
[Cl-].[Cl-].[Ru+2].c1cnc2c(c1)ccc1cccnc12.c1cnc2c(c1)ccc1cccnc12.c1csc(-c2ccc(-c3ccc(-c4nc5c6cccnc6c6ncccc6c5[nH]4)s3)s2)c1  phototherapeutic index (SK-MEL-28; normoxia, together with: green light 523 nm, 100 J/cm2): 270
CCCN1CCN(c2ccc3[nH]c(-c4ccc5[nH]c(-c6ccc(C(F)(F)F)cc6)nc5c4)nc3c2)CC1  growth percent (SK-MEL-28; SRB; 10 µM, 48 h): -94.6%
[Cl][Ru][Cl].c1cnc2c(c1)ccc1cccnc12.c1cnc2c(c1)ccc1cccnc12.c1cnc2c(c1)ccc1cccnc12  phototherapeutic index (SK-MEL-28; normoxia, together with: visible light 100 J/cm2; relative to: dark EC50 over light EC50): > 10
CCCCN1CCN(c2ccc3[nH]c(-c4ccc5[nH]c(-c6ccc(OCC)cc6)nc5c4)nc3c2)CC1  growth percent (SK-MEL-28; SRB; 10 µM, 48 h): 61.6%
O=C(O)c1ccc(O)c2ncccc12  viability (OCI-Ly1; 1 µM, 120 h): 164%
O=c1ccn(Cc2cn(-c3c4ccccc4nc4ccccc34)nn2)c(=O)[nH]1  growth percentage (SK-MEL-28; NCI60 single-dose screen; 10 µM): 102%
CCCCN1CCN(c2ccc3nc(-c4ccc5nc(-c6cc(OC)ccc6OC)[nH]c5c4)[nH]c3c2)CC1  growth percent (SK-MEL-28; SRB; 10 µM, 48 h): 104%
